{"data": "Published values gathered from unrelated publications", "target": "Histone deacetylase 5 (HDAC5, Homo sapiens, UniProt Q9UQL6)", "action": "inhibitor", "note": "Lines come from different studies, so protocols differ.", "sequence of UniProt Q9UQL6 (whole entry, looked up)": "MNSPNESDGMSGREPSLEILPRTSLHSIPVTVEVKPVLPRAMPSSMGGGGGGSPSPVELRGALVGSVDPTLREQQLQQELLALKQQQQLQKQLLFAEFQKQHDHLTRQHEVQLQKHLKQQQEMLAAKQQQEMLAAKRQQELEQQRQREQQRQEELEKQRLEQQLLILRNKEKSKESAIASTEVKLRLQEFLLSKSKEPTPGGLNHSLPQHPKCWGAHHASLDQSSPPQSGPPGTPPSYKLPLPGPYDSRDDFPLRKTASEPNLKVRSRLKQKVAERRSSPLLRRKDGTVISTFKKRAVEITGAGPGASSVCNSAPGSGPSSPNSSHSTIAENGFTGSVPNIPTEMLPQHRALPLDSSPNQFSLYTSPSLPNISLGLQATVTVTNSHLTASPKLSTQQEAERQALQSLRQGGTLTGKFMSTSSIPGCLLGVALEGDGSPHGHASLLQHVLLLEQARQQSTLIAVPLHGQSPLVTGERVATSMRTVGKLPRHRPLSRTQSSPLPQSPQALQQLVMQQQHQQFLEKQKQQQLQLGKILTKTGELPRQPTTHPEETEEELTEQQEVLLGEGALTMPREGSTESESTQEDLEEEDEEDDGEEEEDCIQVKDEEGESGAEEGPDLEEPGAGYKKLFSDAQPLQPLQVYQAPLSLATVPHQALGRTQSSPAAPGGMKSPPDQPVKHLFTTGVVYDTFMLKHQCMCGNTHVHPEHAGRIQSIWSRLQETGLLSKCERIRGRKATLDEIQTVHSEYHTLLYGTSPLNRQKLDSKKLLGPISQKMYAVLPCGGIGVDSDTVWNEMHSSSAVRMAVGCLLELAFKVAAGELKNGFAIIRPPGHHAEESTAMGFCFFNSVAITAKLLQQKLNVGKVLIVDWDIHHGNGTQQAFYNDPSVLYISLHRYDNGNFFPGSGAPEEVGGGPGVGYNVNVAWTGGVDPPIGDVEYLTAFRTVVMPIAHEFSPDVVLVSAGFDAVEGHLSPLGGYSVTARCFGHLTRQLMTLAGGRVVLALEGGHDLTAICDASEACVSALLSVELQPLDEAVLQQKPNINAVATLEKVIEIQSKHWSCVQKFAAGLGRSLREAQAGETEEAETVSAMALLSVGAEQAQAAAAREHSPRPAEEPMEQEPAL"}
{"Compound": "O=C(CCc1ccc(CNC(C(=O)OC2CCCC2)C2CCCCC2)cn1)NO (stereo not shown)", "test": "enzyme activity", "quantity": "IC50", "result": "> 10 µM"}
{"Compound": "O=C1CCC(N2C(=O)c3ccc(N4CCC(C(=O)N5CCC(CCN6CCC(CNC(=O)c7cccc(-c8noc(C(F)(F)F)n8)c7)(c7nc(-c8ccccc8)cs7)CC6)CC5)CC4)cc3C2=O)C(=O)N1 (stereo not shown)", "test": "enzyme activity", "quantity": "IC50", "result": "> 10 µM"}
{"Compound": "CC[C@H](C)[C@@H]1NC(=O)[C@H](Cc2ccccc2C(F)(F)F)NC(=O)CCSCc2cccc(n2)CSCCCNC(=O)[C@H](CCCCCC(=O)O)NC1=O", "test": "enzyme activity, fluorogenic", "quantity": "IC50", "result": "> 30 µM"}
{"Compound": "O=C(CCNc1cccc2c1C(=O)N(C1CCC(=O)NC1=O)C2=O)NCCOCCOCCOCCN1CCC(CNC(=O)c2cccc(-c3noc(C(F)(F)F)n3)c2)(c2nc(-c3ccccc3)cs2)CC1 (stereo not shown)", "test": "enzyme activity", "quantity": "IC50", "result": "2.54 µM"}
{"Compound": "Nc1ccc(-c2ccc(F)cc2)cc1NC(=O)C1CCOCC1", "test": "enzyme activity", "quantity": "IC50", "result": "> 33.3 µM"}
{"Compound": "O=C1CCC(N2C(=O)c3ccc(N4CC(C(=O)N5CC(CN6CCC(CNC(=O)c7cccc(-c8noc(C(F)(F)F)n8)c7)(c7nc(-c8ccccc8)cs7)CC6)C5)C4)cc3C2=O)C(=O)N1 (stereo not shown)", "test": "enzyme activity", "quantity": "IC50", "result": "> 10 µM"}
{"Compound": "COc1ccc(C(=O)NO)cc1NC(=O)c1ccc(-c2ccccc2)cc1", "test": "competition pulldown", "system": "SW620 and MV4-11 lysate", "conditions": "1 h", "quantity": "Kd", "result": "> 30.2 µM"}
{"Compound": "Cc1nc2c(F)cc(-c3nc(Nc4ccc(CNC(=O)CCCCCCC(=O)NO)cc4)ncc3F)cc2n1C(C)C", "test": "enzyme activity", "quantity": "IC50", "result": "> 10 µM"}
{"Compound": "CCCCCCN(O)C(=O)CCCCC[C@@H]1NC(=O)[C@H]([C@@H](C)CC)NC(=O)[C@H](Cc2ccccc2C(F)(F)F)NC(=O)CCSCc2cccc(n2)CSCCCNC1=O", "test": "enzyme activity, fluorogenic", "quantity": "IC50", "result": "> 30 µM"}
{"Compound": "O=C(NO)c1cnc(NC2(c3cccc(F)c3)CCCCC2)nc1", "test": "competition pulldown", "system": "SW620 and MV4-11 lysate", "conditions": "1 h", "quantity": "Kd", "result": "> 30.2 µM"}
{"note": "For quick reference, copied from above:"}
{"Compound": "COc1ccc(C(=O)NO)cc1NC(=O)c1ccc(-c2ccccc2)cc1", "test": "competition pulldown", "system": "SW620 and MV4-11 lysate", "conditions": "1 h", "quantity": "Kd", "result": "> 30.2 µM"}
{"Compound": "Cc1nc2c(F)cc(-c3nc(Nc4ccc(CNC(=O)CCCCCCC(=O)NO)cc4)ncc3F)cc2n1C(C)C", "test": "enzyme activity", "quantity": "IC50", "result": "> 10 µM"}
